Published values from different studies.
Lines come from different studies, so protocols differ. Numbers after ± are the reported error.
KCNH2: Voltage-gated inwardly rectifying potassium channel KCNH2 (KCNH2, Homo sapiens, UniProt Q12809)
Sequence of UniProt Q12809 (whole entry, looked up): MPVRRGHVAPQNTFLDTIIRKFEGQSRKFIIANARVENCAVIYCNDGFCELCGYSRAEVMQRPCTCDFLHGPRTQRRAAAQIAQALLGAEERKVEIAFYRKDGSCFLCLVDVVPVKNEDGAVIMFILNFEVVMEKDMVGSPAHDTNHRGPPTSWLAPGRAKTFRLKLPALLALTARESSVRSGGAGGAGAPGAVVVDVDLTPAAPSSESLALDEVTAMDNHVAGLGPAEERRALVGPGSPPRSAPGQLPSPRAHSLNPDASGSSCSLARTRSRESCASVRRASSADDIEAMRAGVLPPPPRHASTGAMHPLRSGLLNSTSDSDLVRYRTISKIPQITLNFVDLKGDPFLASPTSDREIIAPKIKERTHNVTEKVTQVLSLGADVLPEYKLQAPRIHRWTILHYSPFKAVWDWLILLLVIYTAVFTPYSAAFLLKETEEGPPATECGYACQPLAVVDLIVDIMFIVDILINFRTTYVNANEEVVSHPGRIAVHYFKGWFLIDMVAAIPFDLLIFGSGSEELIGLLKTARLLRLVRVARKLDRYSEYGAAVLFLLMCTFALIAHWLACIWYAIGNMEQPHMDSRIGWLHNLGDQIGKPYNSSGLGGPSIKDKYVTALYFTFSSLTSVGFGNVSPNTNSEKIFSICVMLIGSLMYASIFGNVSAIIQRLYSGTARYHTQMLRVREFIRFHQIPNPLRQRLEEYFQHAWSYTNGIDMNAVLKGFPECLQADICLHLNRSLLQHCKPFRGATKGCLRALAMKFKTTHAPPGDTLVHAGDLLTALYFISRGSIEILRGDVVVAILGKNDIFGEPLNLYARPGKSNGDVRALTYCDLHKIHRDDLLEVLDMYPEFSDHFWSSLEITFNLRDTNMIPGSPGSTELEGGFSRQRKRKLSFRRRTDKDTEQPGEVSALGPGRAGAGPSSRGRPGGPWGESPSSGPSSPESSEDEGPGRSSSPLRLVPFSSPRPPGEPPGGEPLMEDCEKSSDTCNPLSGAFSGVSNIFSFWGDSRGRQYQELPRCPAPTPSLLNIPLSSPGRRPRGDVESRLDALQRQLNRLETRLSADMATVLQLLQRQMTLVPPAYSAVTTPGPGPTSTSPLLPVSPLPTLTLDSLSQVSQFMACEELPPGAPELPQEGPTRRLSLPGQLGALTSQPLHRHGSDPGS
CYP27A1: Sterol 26-hydroxylase, mitochondrial (CYP27A1, Homo sapiens, UniProt Q02318)
Sequence of UniProt Q02318 (whole entry, looked up): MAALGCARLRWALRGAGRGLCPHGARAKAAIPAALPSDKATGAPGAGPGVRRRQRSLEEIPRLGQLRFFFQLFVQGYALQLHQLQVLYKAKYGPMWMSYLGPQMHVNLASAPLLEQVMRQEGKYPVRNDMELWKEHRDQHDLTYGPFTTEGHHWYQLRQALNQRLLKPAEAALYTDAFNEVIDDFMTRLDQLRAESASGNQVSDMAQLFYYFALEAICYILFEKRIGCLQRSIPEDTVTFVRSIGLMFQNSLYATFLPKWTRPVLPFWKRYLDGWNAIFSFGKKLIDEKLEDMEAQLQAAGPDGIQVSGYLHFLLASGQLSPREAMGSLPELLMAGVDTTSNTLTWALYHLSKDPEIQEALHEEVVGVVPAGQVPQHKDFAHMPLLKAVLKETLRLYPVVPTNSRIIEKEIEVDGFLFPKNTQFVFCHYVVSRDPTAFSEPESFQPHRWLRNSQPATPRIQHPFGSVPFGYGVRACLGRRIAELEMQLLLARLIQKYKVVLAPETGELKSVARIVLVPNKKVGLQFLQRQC
MMP2: 72 kDa type IV collagenase (MMP2, Homo sapiens, UniProt P08253)
Sequence of UniProt P08253 (whole entry, looked up): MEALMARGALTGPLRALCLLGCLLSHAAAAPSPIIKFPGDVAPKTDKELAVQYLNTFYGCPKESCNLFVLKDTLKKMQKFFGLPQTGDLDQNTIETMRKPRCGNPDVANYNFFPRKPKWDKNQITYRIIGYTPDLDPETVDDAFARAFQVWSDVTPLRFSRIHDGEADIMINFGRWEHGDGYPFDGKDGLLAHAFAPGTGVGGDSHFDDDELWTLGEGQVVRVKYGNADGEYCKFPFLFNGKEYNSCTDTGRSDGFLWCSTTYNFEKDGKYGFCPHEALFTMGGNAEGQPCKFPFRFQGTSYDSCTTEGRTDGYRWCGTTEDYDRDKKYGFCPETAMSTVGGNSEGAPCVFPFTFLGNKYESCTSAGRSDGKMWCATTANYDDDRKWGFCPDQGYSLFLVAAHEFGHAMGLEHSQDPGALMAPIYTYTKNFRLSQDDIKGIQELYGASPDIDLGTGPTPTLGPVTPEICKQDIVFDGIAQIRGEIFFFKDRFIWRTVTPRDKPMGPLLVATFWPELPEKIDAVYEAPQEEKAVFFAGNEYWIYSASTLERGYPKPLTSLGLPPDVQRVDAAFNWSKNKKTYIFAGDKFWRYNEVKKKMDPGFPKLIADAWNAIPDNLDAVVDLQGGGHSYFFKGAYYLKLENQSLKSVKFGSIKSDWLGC
CYP2D6: Cytochrome P450 2D6 (CYP2D6, Homo sapiens, UniProt P10635)
Sequence of UniProt P10635 (whole entry, looked up): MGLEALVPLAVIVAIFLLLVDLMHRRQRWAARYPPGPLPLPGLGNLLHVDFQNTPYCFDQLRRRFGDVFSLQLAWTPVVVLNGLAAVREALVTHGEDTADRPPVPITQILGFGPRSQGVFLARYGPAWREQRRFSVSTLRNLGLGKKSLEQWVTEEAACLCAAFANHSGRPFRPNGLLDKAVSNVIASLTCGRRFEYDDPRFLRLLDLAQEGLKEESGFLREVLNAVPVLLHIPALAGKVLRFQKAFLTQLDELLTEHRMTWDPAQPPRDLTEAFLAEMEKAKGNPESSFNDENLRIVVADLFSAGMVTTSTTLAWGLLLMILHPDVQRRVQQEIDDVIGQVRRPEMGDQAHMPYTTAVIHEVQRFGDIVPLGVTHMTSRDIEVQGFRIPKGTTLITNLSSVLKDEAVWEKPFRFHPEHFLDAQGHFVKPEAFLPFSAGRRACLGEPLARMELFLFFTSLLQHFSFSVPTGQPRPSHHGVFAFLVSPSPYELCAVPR
Sequence of UniProt Q8VHW5 (whole entry, looked up): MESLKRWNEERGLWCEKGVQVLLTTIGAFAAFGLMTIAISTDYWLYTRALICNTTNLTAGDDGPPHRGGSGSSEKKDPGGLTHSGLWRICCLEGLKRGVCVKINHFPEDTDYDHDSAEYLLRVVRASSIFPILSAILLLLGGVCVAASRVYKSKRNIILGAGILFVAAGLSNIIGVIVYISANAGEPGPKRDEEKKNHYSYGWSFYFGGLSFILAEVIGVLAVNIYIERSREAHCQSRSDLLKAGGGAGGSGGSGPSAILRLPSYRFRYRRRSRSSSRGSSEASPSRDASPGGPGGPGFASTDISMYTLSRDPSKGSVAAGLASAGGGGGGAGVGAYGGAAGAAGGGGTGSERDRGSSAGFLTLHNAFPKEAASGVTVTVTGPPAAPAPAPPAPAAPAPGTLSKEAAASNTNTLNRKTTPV
Sequence of UniProt P07711 (whole entry, looked up): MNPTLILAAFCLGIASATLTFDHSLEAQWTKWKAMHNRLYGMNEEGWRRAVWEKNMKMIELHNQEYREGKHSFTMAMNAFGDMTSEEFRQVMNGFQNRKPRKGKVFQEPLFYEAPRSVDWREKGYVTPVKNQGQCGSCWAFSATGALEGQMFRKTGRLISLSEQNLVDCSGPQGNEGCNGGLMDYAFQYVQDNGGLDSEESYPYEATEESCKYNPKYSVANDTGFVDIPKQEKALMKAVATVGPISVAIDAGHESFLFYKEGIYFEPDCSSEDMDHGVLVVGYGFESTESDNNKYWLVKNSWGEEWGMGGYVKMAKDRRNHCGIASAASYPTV
Sequence of UniProt Q9CPV9 (whole entry, looked up): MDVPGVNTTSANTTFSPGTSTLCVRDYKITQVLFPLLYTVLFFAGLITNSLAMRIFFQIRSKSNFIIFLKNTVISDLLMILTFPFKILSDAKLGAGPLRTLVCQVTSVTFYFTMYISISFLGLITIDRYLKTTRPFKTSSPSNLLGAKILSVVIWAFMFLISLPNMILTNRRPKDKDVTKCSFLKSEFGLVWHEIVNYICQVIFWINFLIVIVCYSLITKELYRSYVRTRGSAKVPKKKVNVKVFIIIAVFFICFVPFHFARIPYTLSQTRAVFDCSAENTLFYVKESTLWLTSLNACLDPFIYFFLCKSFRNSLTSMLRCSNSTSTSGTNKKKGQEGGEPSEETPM
Sequence of UniProt P10111 (whole entry, looked up): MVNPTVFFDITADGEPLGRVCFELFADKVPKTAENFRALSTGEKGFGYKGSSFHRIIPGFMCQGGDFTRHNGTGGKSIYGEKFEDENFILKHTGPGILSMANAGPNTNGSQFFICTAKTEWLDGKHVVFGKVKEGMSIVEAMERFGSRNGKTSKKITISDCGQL
Sequence of UniProt P08684 (whole entry, looked up): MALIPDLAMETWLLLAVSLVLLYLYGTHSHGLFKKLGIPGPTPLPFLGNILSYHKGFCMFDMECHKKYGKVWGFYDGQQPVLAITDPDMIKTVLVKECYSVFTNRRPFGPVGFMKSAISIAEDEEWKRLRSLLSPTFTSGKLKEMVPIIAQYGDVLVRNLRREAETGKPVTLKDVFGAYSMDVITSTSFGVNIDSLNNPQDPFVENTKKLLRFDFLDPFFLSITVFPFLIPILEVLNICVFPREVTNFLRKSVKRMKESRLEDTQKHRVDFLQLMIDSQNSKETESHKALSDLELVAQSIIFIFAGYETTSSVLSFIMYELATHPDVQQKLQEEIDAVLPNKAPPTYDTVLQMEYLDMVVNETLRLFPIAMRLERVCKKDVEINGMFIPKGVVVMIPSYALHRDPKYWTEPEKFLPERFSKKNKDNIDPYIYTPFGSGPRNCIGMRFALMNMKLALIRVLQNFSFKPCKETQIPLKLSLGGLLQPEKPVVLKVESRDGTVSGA
Sequence of UniProt P16257 (whole entry, looked up): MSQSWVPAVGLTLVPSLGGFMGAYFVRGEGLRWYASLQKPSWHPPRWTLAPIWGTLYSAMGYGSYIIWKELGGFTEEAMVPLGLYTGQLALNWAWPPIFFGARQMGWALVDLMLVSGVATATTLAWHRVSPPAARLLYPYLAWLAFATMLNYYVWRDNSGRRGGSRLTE

Compound	target	test	system	conditions	quantity	value
COc1cc(-c2nc3ccccc3s2)cc(CN(Cc2ccccn2)Cc2ccccn2)c1O	Cu2+	UV-vis pH titration	–	M2+ + HL = [MHL]+ complex	log K	3.99
CCN1/C(=C/C=C2\CCCC(/C=C/C3=[N+](CC)c4ccccc4C3(C)C)=C2NCCCCCCCCN2CCC(Nc3nc4ccccc4n3Cc3ccc(F)cc3)CC2)C(C)(C)c2ccccc21	KCNH2	ligand displacement, radioligand	HEK293	80 min, cell membranes	IC50	0.00362 µM
Cc1cccc(Cn2ncc3c4cc(F)c(CN(C)C)cc4n(C)c3c2=O)n1	Pyruvate kinase PKM (Rattus norvegicus, UniProt P11980)	enzyme activity, activator	rat, retina	intravitreal, 1 µM vitreous concentration	half-life of fast phase	67.2 h
CCc1cc(C)nc2c(CC(=O)N(CC)CC)c(-c3ccc(OCC[18F])cc3)nn12	Tspo (Rattus norvegicus, UniProt P16257)	two-tissue compartment model	rat C6 glioma model, brain	60 min dynamic PET	K1/k2 ratio	0.277 mL/cm3
CCC(=O)N(C)c1ccc(Cl)c(Cl)c1	KCNH2	ion current, inhibitor, patch clamp	HEK293	0.5 µM	inhibition	2.11%
C=C1CCC(O)CC1=CC=C1CCCC2(C)C1CCC2C(C)(O)c1ccccc1 (stereo not shown)	CYP27A1	substrate	–	50 µM, 3 h, 0.45% cyclodextrin, 1 µM enzyme	number of products	0
C=CC(=O)Nc1cc(Nc2nccc(-c3cn(C)c4ccccc34)n2)c(OCC(F)(F)F)nc1N(C)CCN(C)C	Cytochrome P450 3A4 (CYP3A4, Homo sapiens, UniProt P08684)	enzyme activity, inhibitor	human, liver microsomes	0.33 µM, testosterone probe	activity vs control	102%
C=C1CCC(O)CC1=CC=C1CCCC2(C)C1CCC2C(C)(C)O (stereo not shown)	CYP27A1	substrate	–	50 µM, 3 h, 0.45% cyclodextrin, 1 µM enzyme	number of products	0
CC(C)C[C@H](NC(=O)[C@@H]1CCCN1C(=O)[C@H](CCCCNC(=O)CN1CCN(CC(=O)O)CCN(CC(=O)O)CCN(CC(=O)O)CC1)NC(=O)CC[C@@H]1NC(=O)[C@@H](Cc2ccccc2)NC(=O)[C@H](CC(=O)O)NC(=O)CNC(=O)[C@H](CCCNC(=N)N)NC1=O)C(=O)NCC(=O)O [copper-64 labelled]	MMP2	substrate, radio-HPLC	–	–	peptide cleavage	no effect
COc1cc2c(CCNC(C)=O)c[nH]c2cc1OS(=O)(=O)O	Abcg2 (mouse)	–	FVB/N wild-type male mice, small intestinal content	oral, 10 mg/kg melatonin, 1 h	concentration	10000 ± 3500 ng/g
N#Cc1cc(C(=O)OCC[18F])c(C(F)(F)F)nc1N1CCN(C(=O)Cc2ccccc2)CC1	P2Y purinoceptor 12 (P2ry12, Mus musculus, UniProt Q9CPV9)	PET	young mouse, 6 weeks, brain	11.1 MBq, 60 min	SUV	0.61 ± 0.06
[64Cu+2].c1ccc(CNCc2ccc(CN3CCCN4CCNCCCN(CC4)CC3)cc2)nc1	CXCR4 (human)	–	NOD/SCID mice, U87 xenografts, small intestine	120 min post-injection	tissue uptake	3.69 ± 1.1 %ID/g
CCc1nc(N)nc(N)c1C#CC(C)c1cc(-c2cc(C)nc(C)c2)ccc1OC (racemic)	CYP2D6	enzyme activity, inhibitor, fluorescence	–	–	IC50	12.9 µM
[11CH3]c1ccc2nc(C3CCC3)n(-c3ccc4[nH]ncc4c3)c2n1	Voltage-dependent calcium channel gamma-8 subunit (Rattus norvegicus, UniProt Q8VHW5)	PET	Sprague-Dawley rat, hippocampus	2.5 min, baseline	maximum SUV	~0.7
CC(=O)N[C@@H](CCCCN)C(=O)N[C@@H](CCCCN)C(=O)N[C@@H](CO)C(=O)N[C@@H](CC(C)C)C(=O)N[C@@H](CO)C(=O)N[C@@H](CC(C)C)C(=O)N[C@@H](CO)C(=O)N[C@@H](CC(C)C)C(=O)N[C@@H](CO)C(=O)N[C@@H](CC(C)C)C(=O)N[C@@H](CO)C(=O)N[C@@H](CC(C)C)C(=O)N[C@@H](CO)C(=O)N[C@@H](CC(C)C)C(=O)N[C@@H](CCCCN)C(=O)N[C@@H](CCCCN)C(N)=O	MMP2	–	–	10 mg/mL, 48 h, 37 °C, together with: MMP2 100 ng	hydrogel degradation	no effect
[64Cu+2].c1cnc(CNCc2ccc(CN3CCCN4CCNCCCN(CC4)CC3)cc2)nc1	CXCR4	–	NOD/SCID mouse, U87 and U87-stb-CXCR4 xenografts, pancreas	iv, 450 min, ex vivo	tissue uptake	1.66 ± 0.09 %ID/g
C/C=C/C[C@@H](C)[C@@H](O)[C@H]1C(=O)N[C@@H](CC)C(=O)N(C)C(Cc2ccc(C(=O)NCCCCCCNC(=O)c3ccc(-c4c5ccc(=[N+](C)C)cc-5oc5cc(N(C)C)ccc45)cc3)cc2)C(=O)N(C)[C@@H](CC(C)C)C(=O)N[C@@H](C(C)C)C(=O)N(C)[C@@H](CC(C)C)C(=O)N[C@@H](C)C(=O)N[C@H](C)C(=O)N(C)[C@@H](CC(C)C)C(=O)N(C)[C@@H](CC(C)C)C(=O)N(C)[C@@H](C(C)C)C(=O)N1C (stereo partly shown)	Peptidyl-prolyl cis-trans isomerase A (Rattus norvegicus, UniProt P10111)	–	parallel incubation with rat mitochondria	concentration not given, at IC50 for pore opening	inhibition	21 ± 6%
CNC(=O)c1ccc(N2CCN(Cc3ccc4nc(C)c(=O)[nH]c4c3F)CC2)c([18F])n1	Poly [ADP-ribose] polymerase 1 (Macaca mulatta, UniProt H9FQ77)	PET	male rhesus monkeys, pons	intravenous, dose not given, baseline	radioactivity uptake	0.67 SUV
Cc1ccc(O)c2c3c(nn12)CCC(C)(NC(=O)c1ccc(-n2cnc4cc(C(=O)O)ccc42)cc1Cl)C3 (stereo not shown)	factor IXa rat	–	rat	prolonged cuticle bleeding time	enzyme occupancy	> 85%
O=C(CS(=O)(=O)Cc1ccco1)C12CC3CC(CC(C3)C1)C2	CYP2D6	enzyme activity, inhibitor	–	10 µM	inhibition	0%
COc1cc(-c2nc3ccccc3s2)cc(CN(C)Cc2ccccn2)c1O	Cu2+	–	–	50 µM, pH 7.4, 1:1 metal:ligand	pCu	7.9
CC(=O)N[C@H](C(=O)N[C@H](C(=O)N[C@@H](CCCNC(=N)N)C(=O)N1Cc2ccccc2C[C@H]1C(=O)N[C@@H](Cc1ccccc1)C(N)=O)C1CCCCC1)C(C)C	Procathepsin L (CTSL, Homo sapiens, UniProt P07711)	substrate	isolated enzyme in acetate buffer	1 mg/mL, pH 5.5, 0.01 U enzyme per µmol compound	half-life	24 h

A few entries again:
Compound	target	test	system	conditions	quantity	value
Cc1cccc(Cn2ncc3c4cc(F)c(CN(C)C)cc4n(C)c3c2=O)n1	Pyruvate kinase PKM (Rattus norvegicus, UniProt P11980)	enzyme activity, activator	rat, retina	intravitreal, 1 µM vitreous concentration	half-life of fast phase	67.2 h
CCc1cc(C)nc2c(CC(=O)N(CC)CC)c(-c3ccc(OCC[18F])cc3)nn12	Tspo (Rattus norvegicus, UniProt P16257)	two-tissue compartment model	rat C6 glioma model, brain	60 min dynamic PET	K1/k2 ratio	0.277 mL/cm3
CCC(=O)N(C)c1ccc(Cl)c(Cl)c1	KCNH2	ion current, inhibitor, patch clamp	HEK293	0.5 µM	inhibition	2.11%
